Assay results from different studies.
Lines come from different studies, so protocols differ.
Cell line: EKVX

`O=C(Nc1nnc2c1c(-c1ccc(Cl)cc1)nc1sc(=Cc3ccco3)c(=O)n12)c1ccccc1` (mixture of isomers) has a cell growth of 53.8% (SRB; 10 µM, NCI60 single-dose screen; reference: untreated).
`CCCCCCCCCCCCCCCCCCOc1ccccc1CCOP(=O)([O-])OCC[N+](C)(C)C` has an inhibition of 0.19% (cell growth or viability, SRB; 10 µM).
With `CN(C)CCN1CCN(c2ccc3nc(-c4ccc5nc(-c6ccc(C(F)(F)F)cc6)[nH]c5c4)[nH]c3c2)CC1` the growth percent was 79% (SRB; 10 µM, 48 h).
`CCCC(CCC)C(=O)OCc1cn(-c2cc3ccccc3oc2=O)nn1` gave a growth percentage of 92.1% (NCI60 single-dose screen; 10 µM).
The IC50 of `CCOc1cncc(-c2ccc(NC(=O)C3(c4ccnc(NS(=O)(=O)C5CC5)n4)CCOCC3)nc2)n1` is reported as 710 nM (cell growth or viability, ATP luminescence; 72 h).
`C1=[N+]2CCCC[N+]3=Cc4ccc5[n]4[Au-]23[n]2c1ccc2-c1nc2ccccc2nc1-5.F[P-](F)(F)(F)(F)F` gave a TGI of 4 -log M (NCI60 five-dose screen).
With `Cc1ccc(C(=O)/C=C/c2ccccc2)s1` the inhibition was 17.7% (cell growth or viability, SRB; 10 µM).
With `Cc1ccc([N+](=O)[O-])cc1S(=O)(=O)N(C)/N=C/c1cnc2ccc(Br)cn12` the IC50 was 1220 nM (cell growth or viability).
